Published values collected from several papers.
Parts stem from different laboratories: compare values within a part only. Changes are numbered by the printed parent chain.

Series 1 — technique: protein-binding microarray; form: double-stranded DNA, one strand shown; sample: in vitro; tested at: 940 nM top; setting: 60-bp whole probe; added: salmon DNA 0.4 mg/ml; relative to: random background probes; reading: higher = stronger binding; constant ends, left off below: GCCTAGCAC … GTCTTGATTCGCTTGACGCTGCTG
Target: Interferon regulatory factor 5, full length, phosphomimetic (IRF5, Homo sapiens, UniProt Q13568-2, residues 1-514, S451D/S453D/S456D/S462D)
Sequence | fitted relative affinity
TCATTTCCCAAGTTTATAACTGTGCTA | 1 z-score
TTAGGTATCTACTATCGGTTAGTGCTA | 1.63 z-score
TTAGAACTGAGTCTGGATTAGTGCTAG | -0.838 z-score
CTTTCTTTATGTACTCTCTCCGTGCTA | 1.89 z-score
AAGCAAGGTGGAGAAGAGAAGTGCTAG | -0.723 z-score
GTCCTCCTCTCTCTTTCCACGTGCTAG | 1.7 z-score
CATCCAGCAGAGAGCCTCAGGTGCTAG | -0.336 z-score
TTAGATATCAGTATAGATTAGTGCTAG | -0.113 z-score
TTTCCTTTATGTACTCTCTACGTGCTA | 2.73 z-score
TCATATTTAAGGCCTATGACTGTGCTA | 0.125 z-score
TCTATTTTCTGAATGTCTTCGTGCTAG | 1.09 z-score
TTAGGAGTGGACTATCGGTTAGTGCTA | -0.0919 z-score
TTAGGACTGCTTATCCTTTGGTGCTAG | -0.307 z-score
GACGGTTTGGGGACTGGGGACGTGCTA | 0.501 z-score
GACGGTATCATACTGCTGACGTGCTAG | 1.21 z-score
TTAGGACTGGACTTTCGTTTAGTGCTA | 1.16 z-score
GACGATCTCAGTATCGAAACGTGCTAG | 2.86 z-score
GAATGTCTTCCCCTCTCATTGTGCTAG | 0.664 z-score
TCAGCCATCAATATCTGACTGTGCTAG | -0.219 z-score
AGCCGTCTCCACCTGGGCAAGTGCTAG | 0.00655 z-score
GACGATCTCAGTCTCGAGATGTGCTAG | 0.595 z-score

Series 2 — technique: RNA Bind-n-Seq; form: RNA; sample: in vitro; tested at: not given; relative to: input RNA pool; reading: higher = stronger binding
Target: RING finger protein unkempt homolog, zinc fingers 1-6, GST-SBP tag (UNK, Homo sapiens, UniProt Q9C0B0, residues 30-357)
UniProt Q9C0B0, sequence (30-357, looked up): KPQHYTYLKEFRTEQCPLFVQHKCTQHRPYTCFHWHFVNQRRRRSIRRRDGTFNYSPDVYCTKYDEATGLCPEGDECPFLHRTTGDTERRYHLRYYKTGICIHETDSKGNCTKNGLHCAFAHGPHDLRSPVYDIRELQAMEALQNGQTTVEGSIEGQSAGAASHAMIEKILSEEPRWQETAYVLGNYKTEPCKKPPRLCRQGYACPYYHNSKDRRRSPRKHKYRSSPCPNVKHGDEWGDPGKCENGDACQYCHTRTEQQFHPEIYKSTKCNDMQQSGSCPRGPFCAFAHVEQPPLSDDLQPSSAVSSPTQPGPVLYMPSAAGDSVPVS
Setting: RNA with constant flanks, human and mouse sites, ends assumed
Sequence | bound/input enrichment [ratio]
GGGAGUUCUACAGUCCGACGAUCUGUGAAAAAUCAGAUGAAUUGAUAAAAGAGUUCCCUGCAACCAAUUGAAAAGUGUUCUGUGCGUCUGUUUUGUGUCUGGUGCAGAAUAUGACAAUCUACCAACUGUCCCUUUGUUUGAAGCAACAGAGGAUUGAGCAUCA | 0.143
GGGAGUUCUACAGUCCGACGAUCGUGGUGACUUGGGAUUUUUAACCUUAUAUAUCUUUUUCCUUUACUCAAAACAAAACAAUUUUUAGCACACUGAAAAAAAAAAAAAGCCAAAUGUUUUGUGCCUUUCUAAGGCAGCACUGUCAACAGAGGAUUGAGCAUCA | 3.6
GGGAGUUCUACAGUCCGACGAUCUCUUUGGCUAACACCCAGCCCCGAGGGCCCCCAGCCUCAUCUCCGGCUCCAGCCCCUAAGUUUUCUCCAGUGACUCCUAAGUUUACUCCUGUGGCUUCCAAGUUCAGUCCUGGAGCCCCACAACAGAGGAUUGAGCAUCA | 0.25
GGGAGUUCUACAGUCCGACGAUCGAAACAUCUCCAGAGACAUCACUGAUCCAAGAUGAAGUUGCCCUCAAGCUGUCUGUAGAAAUCCCUUGCCCGCCUCCAGUUUCCGAAGCUGAUUUAUCCACGGAUGAGAAGGGUGAGGUCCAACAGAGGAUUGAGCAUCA | 0.102
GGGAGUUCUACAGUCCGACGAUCACCAGCUAUGGUCUGCCACAAGCCAGGAGGAUAUCAUUGGCCACUCCUCGACAGCUUUAUAAAUCUUCCAAUAUGACUCAGCGCUGGCAAAGAAGGGAAAUUUCAAACUUCGAAUAUUUGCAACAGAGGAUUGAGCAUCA | 0.275
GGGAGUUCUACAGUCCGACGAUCAAAAAACAACAGUUUUGUUGGCAUGUGAAGCUCCAGUUUCCUCAAAGUCAAGCUGAGUACAUAGAAAAAAGAGUACCAGAUGAUAAAACUAUUAAUGAAAUCCUAAAACCUUACAUUGAUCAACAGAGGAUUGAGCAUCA | 0.188
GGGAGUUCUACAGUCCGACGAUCCAACCCCAACUCCUGACAUAGCUGUCGUCCUGAGUUUGACACAGCCCAGGCUGGGUGUCCUUUGGGAUCUGAUUUUGACCAAGAUGAAAGAAGAUGCCAGGCUCCCUCCUAGAGUGCCACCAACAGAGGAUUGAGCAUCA | 0.204
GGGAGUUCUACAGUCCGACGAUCUCCAUGACGACCCCUCAUGACAUCAGACUUCAUGGGUCAUCGGUCACUCCGGCUUUUGUUGAAUUUGACACAUCCCUUGAAGGCUUUGGUUGCCUGUUUCUGCCCAGCUUGGCUCCCCAUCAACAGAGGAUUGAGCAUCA | 0.227
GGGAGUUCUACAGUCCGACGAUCUUCCCAAAUCGUUUUUCCAAUCGCCCAAUAACUGGACCUCACAUCGCAUACACAGAGGCUGUUAGCGACACUCAGAUCAUGCUGAAAUGGACGUAUGUUCCAUCAAGUAACAAUAAUACUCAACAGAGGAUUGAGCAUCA | 0.38
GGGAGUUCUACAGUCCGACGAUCGACAUUACCACUAUUAAACUUCUCAAUGAAACUAGAGACAUGUUGGAAAGCCCAGAUUUUAGUACAGUUUUGAAUACCUGUUUAAACCGAGGUUUUAGUAGACUUCUAGACAAUAUGGCUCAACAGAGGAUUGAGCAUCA | 11.6
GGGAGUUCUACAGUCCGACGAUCUAGAAGUCAACAUUUCUCCAAGCCUCCAUUCCAACUCUCCUCUGGACAUCAGCAUCAAAGGCCAGAUGAUCCGAGACCUUCUGAACCUGGCUGGCUUUGUUCUGCCCAACAUGGAGGAUACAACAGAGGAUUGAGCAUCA | 0.197

Series 3 — technique: protein-binding microarray; form: double-stranded DNA, one strand shown; sample: in vitro; tested at: not given; reading: higher = stronger binding
Target: Protein max, full length (MAX, Homo sapiens, UniProt P61244-2, residues 1-151)
Setting: k-mer, scored over probes, only values ≥0.25
Sequence | E-score
CGTGTTCC | 0.373
ATTCCACG | 0.332
ATGCAACG | 0.272
AGTACCAC | 0.301
CACCCACG | 0.423
GTGCGCGA | 0.263
CTTCACGC | 0.29
ATCTCATG | 0.322
CGCCGCGC | 0.308
CGGTCACA | 0.288
GCATGCGC | 0.42
ATGTGCCC | 0.369
TAACACGA | 0.29
CATGCACA | 0.437
ATGCCGCA | 0.3
CAATGTGG | 0.362
ACCACGCG | 0.471
CTCATGCA | 0.305
GTGACGCA | 0.275
CGTGGTTA | 0.333
ACCAGGTG | 0.372
TCGTGTCA | 0.309
ATGTGTCC | 0.37
GACCCGCC | 0.275
GTGTGGCA | 0.305

Single results of other studies
P1: CABLES2 docking peptide (human); ICAKRSLCAAFSV; partner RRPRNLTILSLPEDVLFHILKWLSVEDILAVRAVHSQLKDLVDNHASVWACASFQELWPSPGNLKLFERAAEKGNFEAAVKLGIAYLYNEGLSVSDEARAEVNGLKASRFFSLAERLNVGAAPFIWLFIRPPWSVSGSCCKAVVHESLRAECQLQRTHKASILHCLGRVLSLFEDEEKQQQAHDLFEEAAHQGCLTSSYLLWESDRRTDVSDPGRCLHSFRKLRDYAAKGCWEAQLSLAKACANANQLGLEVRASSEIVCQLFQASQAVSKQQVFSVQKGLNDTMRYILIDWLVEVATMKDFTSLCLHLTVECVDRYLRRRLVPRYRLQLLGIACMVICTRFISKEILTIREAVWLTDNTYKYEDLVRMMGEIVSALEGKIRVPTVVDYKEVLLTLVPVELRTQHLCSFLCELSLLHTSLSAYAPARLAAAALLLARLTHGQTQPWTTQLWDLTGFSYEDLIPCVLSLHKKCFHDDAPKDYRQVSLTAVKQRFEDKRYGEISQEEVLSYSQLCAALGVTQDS
Substance | tested on | assay | system | setting | scale | quantity | value
P1 K4A | CCNF, cyclin fold, Cln2 fusion (human) | yeast growth competition, sequencing | yeast | strong parent motif | relative to: not given, higher = stronger binding | normalised enrichment score | 1.5
ASPLKKLFTSTGL | Saccharomyces cerevisiae | binding, competitive growth deep sequencing | peptide, cyclin D3-Cln2 fusion strain | concentration not given, peptide library 1 | direction not given | growth enrichment score | -0.198
PSSMRKICTYFHR | Saccharomyces cerevisiae | binding, competitive growth deep sequencing | peptide, cyclin E1-Cln2 fusion strain | concentration not given, peptide library 2 | direction not given | growth enrichment score | 1.3
APPRKALFTYPKG | Saccharomyces cerevisiae | binding, competitive growth deep sequencing | peptide, cyclin E1-Cln2 fusion strain | concentration not given, Cln2 score subtracted | direction not given | growth enrichment score | 0.278

For quick reference, copied from above (single results of other studies):
Substance | tested on | assay | system | setting | scale | quantity | value
P1 K4A | CCNF, cyclin fold, Cln2 fusion (human) | yeast growth competition, sequencing | yeast | strong parent motif | relative to: not given, higher = stronger binding | normalised enrichment score | 1.5
ASPLKKLFTSTGL | Saccharomyces cerevisiae | binding, competitive growth deep sequencing | peptide, cyclin D3-Cln2 fusion strain | concentration not given, peptide library 1 | direction not given | growth enrichment score | -0.198
PSSMRKICTYFHR | Saccharomyces cerevisiae | binding, competitive growth deep sequencing | peptide, cyclin E1-Cln2 fusion strain | concentration not given, peptide library 2 | direction not given | growth enrichment score | 1.3
APPRKALFTYPKG | Saccharomyces cerevisiae | binding, competitive growth deep sequencing | peptide, cyclin E1-Cln2 fusion strain | concentration not given, Cln2 score subtracted | direction not given | growth enrichment score | 0.278
